Measured values collected from several papers.
A part holds a random share of what one study measured. Values joined by “and” are separate records of one study, mostly repeats; a detail may differ.
UniProt P10721, sequence (whole entry, unmodified, looked up): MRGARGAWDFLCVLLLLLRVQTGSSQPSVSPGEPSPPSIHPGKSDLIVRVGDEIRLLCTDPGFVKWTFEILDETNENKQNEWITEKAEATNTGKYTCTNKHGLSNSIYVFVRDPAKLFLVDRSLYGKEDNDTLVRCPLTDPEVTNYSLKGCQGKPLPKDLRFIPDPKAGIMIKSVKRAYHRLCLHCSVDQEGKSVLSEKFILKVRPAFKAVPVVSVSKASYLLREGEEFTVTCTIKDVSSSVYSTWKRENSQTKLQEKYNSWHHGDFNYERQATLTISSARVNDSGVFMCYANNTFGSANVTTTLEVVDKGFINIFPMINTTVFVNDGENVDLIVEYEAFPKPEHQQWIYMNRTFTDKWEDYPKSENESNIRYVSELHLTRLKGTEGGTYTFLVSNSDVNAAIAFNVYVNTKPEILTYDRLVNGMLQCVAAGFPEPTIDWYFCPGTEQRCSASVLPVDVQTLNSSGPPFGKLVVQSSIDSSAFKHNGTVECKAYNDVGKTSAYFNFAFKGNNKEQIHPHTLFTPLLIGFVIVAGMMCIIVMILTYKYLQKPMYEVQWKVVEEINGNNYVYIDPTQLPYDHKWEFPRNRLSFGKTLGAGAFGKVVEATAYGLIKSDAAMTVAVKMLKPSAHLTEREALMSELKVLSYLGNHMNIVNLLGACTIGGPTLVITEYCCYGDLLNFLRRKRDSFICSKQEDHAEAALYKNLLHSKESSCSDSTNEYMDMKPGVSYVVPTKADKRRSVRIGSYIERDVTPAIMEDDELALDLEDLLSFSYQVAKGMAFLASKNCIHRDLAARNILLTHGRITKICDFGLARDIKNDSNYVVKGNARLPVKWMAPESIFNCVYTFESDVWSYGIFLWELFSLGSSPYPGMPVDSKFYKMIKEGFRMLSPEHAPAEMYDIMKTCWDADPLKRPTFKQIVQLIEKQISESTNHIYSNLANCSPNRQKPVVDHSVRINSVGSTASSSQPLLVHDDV
UniProt P54756, sequence (whole entry, looked up): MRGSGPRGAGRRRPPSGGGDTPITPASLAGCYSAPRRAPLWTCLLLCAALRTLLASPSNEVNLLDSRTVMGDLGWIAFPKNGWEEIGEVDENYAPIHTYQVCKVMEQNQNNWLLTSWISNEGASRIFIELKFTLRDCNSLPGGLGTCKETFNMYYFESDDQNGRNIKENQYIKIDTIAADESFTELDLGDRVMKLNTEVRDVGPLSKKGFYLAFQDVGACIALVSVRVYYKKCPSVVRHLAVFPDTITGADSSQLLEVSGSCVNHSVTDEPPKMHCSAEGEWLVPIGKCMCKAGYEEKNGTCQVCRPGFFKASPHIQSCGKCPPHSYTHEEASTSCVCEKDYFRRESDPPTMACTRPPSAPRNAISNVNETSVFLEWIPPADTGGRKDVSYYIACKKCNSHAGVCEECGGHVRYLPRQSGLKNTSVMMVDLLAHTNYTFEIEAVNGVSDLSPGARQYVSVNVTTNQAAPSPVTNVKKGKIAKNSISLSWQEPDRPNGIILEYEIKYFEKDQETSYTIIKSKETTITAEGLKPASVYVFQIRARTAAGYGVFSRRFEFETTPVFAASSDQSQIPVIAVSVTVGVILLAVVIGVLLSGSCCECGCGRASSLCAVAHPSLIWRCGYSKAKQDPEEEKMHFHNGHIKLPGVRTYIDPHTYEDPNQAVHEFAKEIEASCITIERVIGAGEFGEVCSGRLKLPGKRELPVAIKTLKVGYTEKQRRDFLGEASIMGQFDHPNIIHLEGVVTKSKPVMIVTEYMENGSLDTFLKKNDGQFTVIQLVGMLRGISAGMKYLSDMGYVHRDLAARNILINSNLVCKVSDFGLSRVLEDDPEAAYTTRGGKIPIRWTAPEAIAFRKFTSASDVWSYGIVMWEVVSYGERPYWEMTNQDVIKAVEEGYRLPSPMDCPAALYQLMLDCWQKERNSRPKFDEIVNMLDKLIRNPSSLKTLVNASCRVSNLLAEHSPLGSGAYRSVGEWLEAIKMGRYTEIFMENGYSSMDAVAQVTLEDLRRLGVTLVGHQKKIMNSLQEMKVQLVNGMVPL
UniProt P48729, sequence (whole entry, looked up): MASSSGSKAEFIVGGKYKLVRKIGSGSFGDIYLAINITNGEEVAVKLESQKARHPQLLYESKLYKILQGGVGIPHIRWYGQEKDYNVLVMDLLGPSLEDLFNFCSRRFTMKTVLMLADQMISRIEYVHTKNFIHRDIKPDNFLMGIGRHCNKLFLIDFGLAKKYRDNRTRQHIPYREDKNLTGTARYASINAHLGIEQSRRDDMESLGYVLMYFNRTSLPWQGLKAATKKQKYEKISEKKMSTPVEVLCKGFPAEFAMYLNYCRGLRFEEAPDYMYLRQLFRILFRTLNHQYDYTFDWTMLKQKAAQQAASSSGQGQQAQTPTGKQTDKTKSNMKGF
UniProt Q9NRM7, sequence (whole entry, looked up): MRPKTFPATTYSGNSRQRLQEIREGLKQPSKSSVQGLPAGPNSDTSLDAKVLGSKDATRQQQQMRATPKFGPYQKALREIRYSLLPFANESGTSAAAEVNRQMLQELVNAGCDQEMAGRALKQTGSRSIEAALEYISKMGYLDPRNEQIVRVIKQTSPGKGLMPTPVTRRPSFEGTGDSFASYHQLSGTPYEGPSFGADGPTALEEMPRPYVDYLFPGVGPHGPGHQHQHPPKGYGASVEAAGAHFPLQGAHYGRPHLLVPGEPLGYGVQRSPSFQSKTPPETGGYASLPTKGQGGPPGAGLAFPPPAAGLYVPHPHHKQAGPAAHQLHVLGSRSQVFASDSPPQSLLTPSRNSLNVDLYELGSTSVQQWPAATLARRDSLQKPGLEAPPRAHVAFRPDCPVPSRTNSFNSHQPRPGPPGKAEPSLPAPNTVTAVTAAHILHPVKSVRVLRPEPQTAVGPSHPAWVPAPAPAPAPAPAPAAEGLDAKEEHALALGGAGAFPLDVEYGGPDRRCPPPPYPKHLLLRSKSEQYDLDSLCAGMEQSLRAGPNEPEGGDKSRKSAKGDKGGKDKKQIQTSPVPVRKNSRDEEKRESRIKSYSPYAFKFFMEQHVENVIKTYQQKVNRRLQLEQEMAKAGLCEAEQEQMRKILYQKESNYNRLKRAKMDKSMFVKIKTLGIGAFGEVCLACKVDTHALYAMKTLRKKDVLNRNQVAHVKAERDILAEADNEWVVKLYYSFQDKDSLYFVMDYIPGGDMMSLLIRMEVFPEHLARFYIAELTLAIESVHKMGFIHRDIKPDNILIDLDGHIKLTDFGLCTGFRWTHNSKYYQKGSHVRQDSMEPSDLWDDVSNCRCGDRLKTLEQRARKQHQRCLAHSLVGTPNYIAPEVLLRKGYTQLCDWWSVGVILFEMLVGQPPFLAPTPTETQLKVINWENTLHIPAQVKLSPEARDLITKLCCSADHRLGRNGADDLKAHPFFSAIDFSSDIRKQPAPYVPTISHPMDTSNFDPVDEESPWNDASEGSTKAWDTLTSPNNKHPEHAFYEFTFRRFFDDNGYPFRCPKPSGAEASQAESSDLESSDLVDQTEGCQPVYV
UniProt Q08345, sequence (whole entry, looked up): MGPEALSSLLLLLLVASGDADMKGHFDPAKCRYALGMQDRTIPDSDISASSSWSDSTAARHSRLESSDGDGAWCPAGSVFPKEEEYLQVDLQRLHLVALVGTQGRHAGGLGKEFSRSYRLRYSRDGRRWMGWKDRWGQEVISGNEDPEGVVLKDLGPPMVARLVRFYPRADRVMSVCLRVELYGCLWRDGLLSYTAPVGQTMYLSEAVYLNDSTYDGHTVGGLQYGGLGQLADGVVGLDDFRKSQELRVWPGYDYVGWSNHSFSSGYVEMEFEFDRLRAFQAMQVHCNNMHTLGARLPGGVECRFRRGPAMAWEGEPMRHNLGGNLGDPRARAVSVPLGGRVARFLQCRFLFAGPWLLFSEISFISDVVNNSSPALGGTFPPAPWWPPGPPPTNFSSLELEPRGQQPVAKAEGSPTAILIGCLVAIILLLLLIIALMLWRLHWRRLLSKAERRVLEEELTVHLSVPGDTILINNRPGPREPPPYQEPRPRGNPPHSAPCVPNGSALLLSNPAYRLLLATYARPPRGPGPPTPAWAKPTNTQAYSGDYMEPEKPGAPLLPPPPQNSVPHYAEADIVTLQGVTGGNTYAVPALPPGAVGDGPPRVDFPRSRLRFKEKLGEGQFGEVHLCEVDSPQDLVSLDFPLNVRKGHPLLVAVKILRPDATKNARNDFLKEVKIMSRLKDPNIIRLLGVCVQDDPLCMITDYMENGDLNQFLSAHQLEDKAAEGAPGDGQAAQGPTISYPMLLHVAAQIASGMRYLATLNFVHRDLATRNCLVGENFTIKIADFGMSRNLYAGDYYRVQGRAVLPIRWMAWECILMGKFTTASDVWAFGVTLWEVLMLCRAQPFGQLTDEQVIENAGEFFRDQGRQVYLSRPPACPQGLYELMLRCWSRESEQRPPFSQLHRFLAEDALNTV
UniProt Q13188, sequence (whole entry, looked up): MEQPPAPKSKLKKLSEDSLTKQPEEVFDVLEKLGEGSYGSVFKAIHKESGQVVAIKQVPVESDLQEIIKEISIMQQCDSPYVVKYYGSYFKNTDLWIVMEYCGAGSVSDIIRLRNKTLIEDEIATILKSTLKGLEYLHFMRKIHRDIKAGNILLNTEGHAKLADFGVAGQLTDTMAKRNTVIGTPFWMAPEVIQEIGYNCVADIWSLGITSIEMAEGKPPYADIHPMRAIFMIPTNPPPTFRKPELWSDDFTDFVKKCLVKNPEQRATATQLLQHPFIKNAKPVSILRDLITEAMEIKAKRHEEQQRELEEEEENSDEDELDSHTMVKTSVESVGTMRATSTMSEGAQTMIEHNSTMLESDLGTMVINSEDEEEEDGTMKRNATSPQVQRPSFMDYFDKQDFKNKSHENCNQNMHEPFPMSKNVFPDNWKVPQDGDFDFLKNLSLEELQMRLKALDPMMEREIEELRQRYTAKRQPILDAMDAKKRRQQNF

Sample 1
Target: PABPC1L2, full length, GST fusion (mouse, UniProt A0ABA7IW68)
Method: RNAcompete
Form: RNA
Matrix: in vitro
Concentration: 20 nM
Notes: 7-mer, probes averaged, single round
Reference: mean of 7-mers
Reading: higher = stronger binding
Construct (chain): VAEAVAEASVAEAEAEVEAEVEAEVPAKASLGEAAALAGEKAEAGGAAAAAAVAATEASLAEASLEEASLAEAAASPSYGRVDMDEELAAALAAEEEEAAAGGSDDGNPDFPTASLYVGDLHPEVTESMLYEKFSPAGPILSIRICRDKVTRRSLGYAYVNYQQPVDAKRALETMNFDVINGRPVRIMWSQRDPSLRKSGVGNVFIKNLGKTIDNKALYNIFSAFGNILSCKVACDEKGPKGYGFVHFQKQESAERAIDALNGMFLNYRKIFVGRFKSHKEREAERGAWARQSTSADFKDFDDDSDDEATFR
The 7-mer Z-score of `GGAACCU` is reported as -0.0536.
`UCCAGAA` gave a 7-mer Z-score of 0.066.
The 7-mer Z-score of `CUCCUCA` is reported as -0.36.
`UACUGCU` has a 7-mer Z-score of -0.202.
`AAAGCCC` has a 7-mer Z-score of 0.361.
`UGGAUCU` has a 7-mer Z-score of -0.18.
The 7-mer Z-score of `CUUGGAA` is reported as 0.0497.
For `GACGCGC`, the 7-mer Z-score was -0.257.

Sample 2
Host: mouse
Matrix: microsomes or S9
Concentration: 2 µM
Time: 0.5 h
`CCOC(=O)N1CCC(NC(=O)COCC(=O)Nc2ccc(C#N)cc2)CC1` gave a remaining compound of 67%.
With `O=C(CN(CCc1ccccc1)C(=O)CN1C(=O)COc2ccccc21)NCC1CCCO1` (centres unmarked) the remaining compound was 5.34%.
For `COc1cc(Cl)c(NC(=O)c2cc(S(=O)(=O)N3CCCCC3)c[nH]2)c(OC)c1`, the remaining compound was 1.92%.
With `COC(=O)[C@@H](O)c1c(C)nc2[nH]c(C)c(C)c2c1Cl` the remaining compound was 11.8%.

Sample 3
Method: PRP chromatography estimate
Matrix: 1,9-decadiene/PBS
pH: 7.4
For `CCC[C@@H]1NC(=O)CSC[C@@H](C(=O)OCC)N(C)C(=O)[C@H](CC(C)C)NC(=O)[C@@H](C)N(C)C(=O)[C@H](CC(C)C)NC(=O)[C@H](C)N(C)C(=O)[C@H]2CCCN2C(=O)[C@@H](CC(C)C)NC(=O)CN(C)C1=O`, the logD was -0.291.
`CC(C)C[C@@H]1NC(=O)[C@H](C(C)C)NC(=O)[C@H](CC(C)C)NC(=O)[C@@H](CC(C)C)NC(=O)[C@H](CC(C)C)NC(=O)[C@H](C(C)C)NC(=O)[C@H](Cc2cscn2)NC1=O` gave a logD of 0.753.
For `CC(C)C[C@@H]1NC(=O)[C@H](C)NC(=O)[C@@H](CC(C)C)NC(=O)[C@H](C)NC(=O)[C@H](CC(C)C)NC(=O)[C@H](CC(C)C)NC(=O)[C@H](CC(C)C)NC1=O`, the logD was -0.215.
With `CC(C)C[C@@H]1NC(=O)[C@H](CCC(=O)N2CCCC2)NC(=O)[C@H](CCC(=O)N2CCCC2)NC(=O)[C@@H](CCC(=O)N2CCCC2)NC(=O)[C@H](CC(C)C)NC(=O)[C@@H](CC(C)C)NC(=O)[C@H](CC(C)C)NC1=O` the logD was -1.57.

Sample 4
SMILES: O=C1NC(c2ccccn2)Sc2ccccc21 (centres unmarked)
Effect on: cell-free assay
Method: competition with immobilised ligand
Concentration: 1 µM
For Tyrosine-protein kinase ABL1, non-phosphorylated (ABL1, Homo sapiens, UniProt P00519): remaining binding read 69%.
For Mast/stem cell growth factor receptor Kit (KIT, Homo sapiens, UniProt P10721, T670I/V559D): remaining binding read 87%.
Mast/stem cell growth factor receptor Kit (KIT, Homo sapiens, UniProt P10721, L576P) — remaining binding: 89%.
It gave 100% for remaining binding (Serine/threonine-protein kinase Sgk3 (SGK3, Homo sapiens, UniProt Q96BR1)).
The remaining binding was 72% (Casein kinase I isoform alpha (CSNK1A1, Homo sapiens, UniProt P48729)).
Serine/threonine-protein kinase Nek10 (NEK10, Homo sapiens, UniProt Q6ZWH5) — remaining binding: 100%.
Tyrosine-protein kinase ABL1, phosphorylated (ABL1, Homo sapiens, UniProt P00519, M351T) — remaining binding: 100%.
Mitogen-activated protein kinase kinase kinase 14 (MAP3K14, Homo sapiens, UniProt Q99558) — remaining binding: 92%.
For cGMP-dependent protein kinase 1 (PRKG1, Homo sapiens, UniProt Q13976): remaining binding read 100%.
BDNF/NT-3 growth factors receptor (NTRK2, Homo sapiens, UniProt Q16620) — remaining binding: 87%.
For Serine/threonine-protein kinase LATS2 (LATS2, Homo sapiens, UniProt Q9NRM7): remaining binding read 70%.
It gave 100% for remaining binding (Tyrosine-protein kinase Yes (YES1, Homo sapiens, UniProt P07947)).
Serine/threonine-protein kinase 3 (STK3, Homo sapiens, UniProt Q13188) — remaining binding: 100%.
It gave 100% for remaining binding (Cyclin-dependent kinase-like 5 (CDKL5, Homo sapiens, UniProt O76039)).
The remaining binding was 69% (Serine/threonine-protein kinase DCLK3 (DCLK3, Homo sapiens, UniProt Q9C098)).
The remaining binding was 85% (Ephrin type-A receptor 5 (EPHA5, Homo sapiens, UniProt P54756)).
For Epidermal growth factor receptor (EGFR, Homo sapiens, UniProt P00533, G719S): remaining binding read 82%.
The remaining binding was 86% (Epithelial discoidin domain-containing receptor 1 (DDR1, Homo sapiens, UniProt Q08345)).

Sample 5
Cell line: mouse MPNST tumor cells
Method: high-content immunofluorescence imaging
Refers to: nuclear SOX9
Concentration: 10 µM
Time: 12 h
Notes: mean of 2 replicates
Reference: DMSO control
Reading: higher = more nuclear SOX9
`O=C(Nc1ccncc1)c1cc([N+](=O)[O-])ccc1Cl` — result for “nuclear SOX9 intensity”: 104 % of DMSO.
Under “nuclear SOX9 intensity”, `c1ccc2[nH]c(-c3cscn3)nc2c1` is recorded as 105 % of DMSO and 107 % of DMSO.
`CCCCN1C[C@H](O)[C@@H](O)[C@H](O)[C@H]1CO` — result for “nuclear SOX9 intensity”: 92.2 % of DMSO.

Mixed results
For `C[C@H]1[C@H](OC(=O)CCC(=O)O)O[C@@H]2O[C@@]3(C)CC[C@H]4[C@H](C)CC[C@@H]1[C@@]24OO3`, the inhibition was 84.2% (Sarcocystis neurona; parasite growth; 10 µM).

For quick reference, copied from above (sample 3):
For `CCC[C@@H]1NC(=O)CSC[C@@H](C(=O)OCC)N(C)C(=O)[C@H](CC(C)C)NC(=O)[C@@H](C)N(C)C(=O)[C@H](CC(C)C)NC(=O)[C@H](C)N(C)C(=O)[C@H]2CCCN2C(=O)[C@@H](CC(C)C)NC(=O)CN(C)C1=O`, the logD was -0.291.
`CC(C)C[C@@H]1NC(=O)[C@H](C(C)C)NC(=O)[C@H](CC(C)C)NC(=O)[C@@H](CC(C)C)NC(=O)[C@H](CC(C)C)NC(=O)[C@H](C(C)C)NC(=O)[C@H](Cc2cscn2)NC1=O` gave a logD of 0.753.
For `CC(C)C[C@@H]1NC(=O)[C@H](C)NC(=O)[C@@H](CC(C)C)NC(=O)[C@H](C)NC(=O)[C@H](CC(C)C)NC(=O)[C@H](CC(C)C)NC(=O)[C@H](CC(C)C)NC1=O`, the logD was -0.215.
With `CC(C)C[C@@H]1NC(=O)[C@H](CCC(=O)N2CCCC2)NC(=O)[C@H](CCC(=O)N2CCCC2)NC(=O)[C@@H](CCC(=O)N2CCCC2)NC(=O)[C@H](CC(C)C)NC(=O)[C@@H](CC(C)C)NC(=O)[C@H](CC(C)C)NC1=O` the logD was -1.57.
